Experimental data gathered from unrelated publications.
Parts stem from different laboratories: compare values within a part only. Changes are numbered by the printed parent chain.

Block 1 — method: protein-binding microarray; molecule type: double-stranded DNA, one strand shown; sample: in vitro; concentration: 250 nM; setting: 60-bp whole probe; with: salmon DNA 0.4 mg/ml; reference: random background probes; reading: higher = stronger binding; constant ends, left off below: GCCTAGCAC … GTCTTGATTCGCTTGACGCTGCTG
Target: Interferon regulatory factor 5, full length, phosphomimetic (IRF5, Homo sapiens, UniProt Q13568-2, residues 1-514, K96S/S451D/S453D/S456D/S462D)
`TTAGGTCTCGGTCTCGGCTAGTGCTAG` has a log fluorescence of 0.45 z-score.
With `TTAAAACTGAGTTTCGATTAGTGCTAG` the log fluorescence was 9.66 z-score.
`ACTAGATAAGACAAAGTGATGTGCTAG` gave a log fluorescence of 0.188 z-score.
`GACGGTATCGGACGGGGGACGTGCTAG` has a log fluorescence of 1.62 z-score.
`GACGGTATCGACTTTCGGGTCGTGCTA` gave a log fluorescence of 7.76 z-score.
For `TTAGGAATCGGTTTCGGTTAGTGCTAG`, the log fluorescence was 9.87 z-score.
`TTAGATCTTAGTCTCGATTAGTGCTAG` gave a log fluorescence of 0.983 z-score.
For `TTGGGTTTCGGTCTCGGTTAGTGCTAG`, the log fluorescence was 9.99 z-score.
`TCAGTTTTACTTTCTATACTGTGCTAG` gave a log fluorescence of 5.6 z-score.
The log fluorescence of `TCATTCCTGATCTCTGGTCTTGTGCTA` is reported as 0.538 z-score.

Block 2 — method: RNA Bind-n-Seq; molecule type: RNA; sample: in vitro; concentration: not given; setting: RNA with constant flanks, ends assumed; reference: input RNA pool; reading: higher = stronger binding
Target: RING finger protein unkempt homolog, zinc fingers 1-6, GST-SBP tag (UNK, Homo sapiens, UniProt Q9C0B0, residues 30-357)
Chain of UniProt Q9C0B0 (30-357, looked up): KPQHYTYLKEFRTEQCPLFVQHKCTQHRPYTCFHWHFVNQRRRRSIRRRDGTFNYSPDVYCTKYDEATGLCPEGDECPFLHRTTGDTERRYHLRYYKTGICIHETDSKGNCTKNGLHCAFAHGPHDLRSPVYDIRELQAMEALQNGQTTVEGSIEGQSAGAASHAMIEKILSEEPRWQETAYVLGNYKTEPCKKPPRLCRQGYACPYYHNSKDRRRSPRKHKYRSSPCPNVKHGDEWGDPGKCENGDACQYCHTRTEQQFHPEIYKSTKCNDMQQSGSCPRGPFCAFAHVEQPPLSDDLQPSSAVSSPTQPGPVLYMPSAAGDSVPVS
Constant ends, left off below: GGGAGUUCUACAGUCCGACGAUC … CAACAGAGGAUUGAGCAUCA
`CGAGAAGUAGGAAUCCCUCCAGAACAAUCCUUGGAAACUGCUAAGGCAGUAAAGGAGCGCUACCGUUAUGUCUGCCCAGAUUUAGUAAAAGAAUUUAACAAGUAUGAUACAGAUGGGUCA` gave a bound/input enrichment of 1.27 ratio.
For `AUAAAGAUAUCUAGCCAAAAUCUCAAUCUUGCCUUAACAAUGUUUCAGAGACUGAAUAAAAUGUUUGCCGGCGAAGUCACUACUUCUUCCAGCCAAGAACCAGAAUUCAGUGAGAAAGAA`, the bound/input enrichment was 0.615 ratio.
`AGGUGCAAAGAAAAAGACUUGGAUGAUACCUGCAUGCUGCAUAAGAAGUCAGAAAGCCCAUUCCGAGAAACAGAACCUCUGGUGUCACCACACCAAGAUAAACUCAUGUCUAUGCCAGUU` has a bound/input enrichment of 0.179 ratio.
With `GUAGAUGGUACCUUUCUAGUGUGGCAUGUGAAGUAUUUGGAUGAAUAUAAUCCUGGAAUAUUCCGACAAGUUCAGGUUUCUUUUUCUUCUCGGAUUCCUGUUGCAUUUCCCUCUGGUGAU` the bound/input enrichment was 0.322 ratio.
For `AGUAGGAAAAUUACUGUUUUGCAAGUGAAUGAAAAAUCACUUAUAAGGCAAUAUACAACCUCCGCCGAAUUGGAGCGACAACUUAGAAAAGAAAAUGAGAAGCAAAAGAAUGAAUUGUUG`, the bound/input enrichment was 3.86 ratio.
`AAAAUAGACUAUGGUGAAUACAUGGAUAAAAAUAAUGUGAGGCGACAAGCAACAACAAUCACCGCUGAUAAUAUUAUAUUUCUGAGUGACCAGACGAAAGAGAAGGAGUAGAAAGGAUGA` gave a bound/input enrichment of 0.829 ratio.
For `UUUUUGGGAAUUGCUUACAUCACUAUUGGAUCCAUCUCUUUCCUUCUGGGAGUUGUACUGCCCGUAAUUAAUCAUAAAUAUAGAAACAGUAGUAACACUGCUGACAUCACCAUUUAAUUU`, the bound/input enrichment was 2.29 ratio.
The bound/input enrichment of `CUCUUCUUGAAUUCUACCGCAGGGACAAGUGGAGGAGCUUAUGAUCAUAGCUAUGCCGAGCUCUUUUUGAAUUCUACAGCAGGGGCAAGUGGUGGUGCUUACGGUAGCCAGAUGAUGGGA` is reported as 0.507 ratio.

Block 3 — target: CCND3, cyclin fold, Cln2 fusion (human); method: yeast growth competition, sequencing; sample: yeast; setting: weak parent motif; reference: not given; reading: higher = stronger binding
Parent: RBL1 docking peptide (human); GSAKRRLFGEDPP; partner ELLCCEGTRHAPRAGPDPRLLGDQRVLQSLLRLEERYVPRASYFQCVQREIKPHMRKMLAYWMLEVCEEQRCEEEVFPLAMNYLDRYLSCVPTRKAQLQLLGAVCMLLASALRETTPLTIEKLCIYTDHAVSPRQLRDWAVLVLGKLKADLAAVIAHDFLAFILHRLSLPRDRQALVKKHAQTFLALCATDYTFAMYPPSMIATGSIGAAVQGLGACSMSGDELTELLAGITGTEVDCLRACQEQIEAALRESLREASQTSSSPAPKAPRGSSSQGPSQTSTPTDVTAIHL
`GSAKRRYFGEDPP [L7Y]` — result for “normalised enrichment score”: 0.0527.
For `GTAKRRLFGEDPP [S2T]`, “normalised enrichment score” read 0.0684.
`GSAKRDLFGEDPP [R6D]`: “normalised enrichment score” 0.00918.
For `GSAKRRLFGEDHP [P12H]`, “normalised enrichment score” read 0.0967.
`GSAKRRLHGEDPP [F8H]` — result for “normalised enrichment score”: 0.202.
Under “normalised enrichment score”, `GSAKQRLFGEDPP [R5Q]` is recorded as 0.14.

Mixed results
`PhoQ, residues 284 288 289 292 302 303 AGHLVA` gave a fold induction of 1.08 (PhoP, residues 12 14 15 18 19 SYFRT (Escherichia coli, UniProt P23836); Sort-seq, refers to: YFP reporter; E. coli; PhoQ-PhoP variant library, with: 10 µM Mg2+; reference: high Mg2+ state, higher = stronger signaling).

A few entries again (block 3):
`GSAKRRYFGEDPP [L7Y]` — result for “normalised enrichment score”: 0.0527.
For `GTAKRRLFGEDPP [S2T]`, “normalised enrichment score” read 0.0684.
`GSAKRDLFGEDPP [R6D]`: “normalised enrichment score” 0.00918.
For `GSAKRRLFGEDHP [P12H]`, “normalised enrichment score” read 0.0967.
